Measured values from different studies.
“And” joins repeats or separate records; there may be more than shown.
Target: Testis-specific serine/threonine-protein kinase 1 (TSSK1B, Homo sapiens, UniProt Q9BXA7)

| test | conditions | how to read | quantity | result | SMILES |
| --- | --- | --- | --- | --- | --- |
| cell-free assay, competition with immobilised ligand | 50 nM | – | remaining binding | 92% | CN1CCN(Cc2ccc(NC(=O)c3cccc(C#Cc4cnc(N)c5ncccc45)c3)cc2C(F)(F)F)CC1 |
| KinomeScan | 0.1 µM | reference: untreated | remaining binding | 100% | CNC1C[S+]2CC[S+]3CC[S+](C1)[Ru-4]321([N]=C=S)[n]2c3ccc(OC)cc3c3c4c(c5cc(F)c[n+]1c5c32)C(=O)NC4=O (centres unmarked) |
| KINOMEscan | 10 µM | – | remaining binding | 96% | CC(=O)N1c2ccc(-c3ccc(CNC(=O)c4cn5cc(-c6cnc(N)nc6)nc(N6CCOCC6)c5n4)cc3)cc2CC[C@@H]1C |
| enzyme activity, inhibitor | 10 µM | – | inhibition | 0.53% | COc1cc(-n2cc3cc(F)cc(C(N)=O)c3n2)cc(Cl)c1C1CC(O)(CCO)Cc2ccccc21 (centres unmarked) |
| binding, competition with immobilised ligand | 1 µM | – | remaining binding | 100% | COc1cc(Nc2nc(C)cc(-c3cnn4nc(OC)ccc34)n2)cc(C(F)(F)F)c1 |
| enzyme activity, inhibitor | 10 µM | – | inhibition | -7% | Cc1cccc(O[C@H]2CCC[C@@H](C(C)CNCc3ccncc3)C2)c1 (relative stereo) |
| cell-free assay, competition with immobilised ligand | 1 µM | – | remaining binding | 95% | C=CC(=O)N1CCCC(n2c(=O)c3ncccc3n(Cc3ccc(Oc4ccccc4)cc3)c2=O)C1 (centres unmarked) |
| kinase activity | 0.1 µM | – | inhibition | 15% and 14% | C=CC(=O)Nc1cccc(-c2cnc3[nH]cc(C(=O)NC(C)(C)C)c3n2)c1 |
| kinase activity, KinaseProfiler | 0.03 µM, species human | reference: control | remaining activity | 103% | COc1ccc(NC(=O)Nc2ccc3c(c2)C(=O)N(C(C)CO)CC(C)C(CN(C)Cc2ccc4c(c2)OCO4)O3)cc1 (centres unmarked) |
| kinase activity, inhibitor, ProQinase kinase profiling | 25 µM | reference: control | remaining activity | 69% and 96% | COCC12C(=O)NC3C4(C(OC)CC1O)C1CC5(O)C(OC)C(O)C(OC(C)=O)(C1C5OC(=O)c1ccccc1)C3(O)C(OC)C24 (centres unmarked) |
| KINOMEscan | 1 µM | reference: DMSO control | remaining binding | 96% | C=CC(=O)N1CCc2ccc(-n3c(=O)ccc4cnc5ccc(-c6cnn(C)c6)cc5c43)cc21 |
| binding, competition with immobilised ligand | 1 µM | – | remaining binding | 100% | Nc1ncc2c(n1)-c1c([nH]c3ccc(C4=CCOCC4)cc13)CCC2 |
| binding, competition with immobilised ligand | 1 µM | – | remaining binding | 90% | CNC(=O)C1CCN(c2cc(C)c(F)cc2NC(=O)c2ccc(-c3cc(O)ccc3C)c(C)c2)CC1 |
| binding, competition with immobilised ligand | 0.2 µM | – | inhibition | -9.41% | COc1ccc(O)cc1-c1c[nH]c2ncc(-c3cncc(C(=O)N(C)C)c3)cc12 |
| cell-free assay, competition with immobilised ligand | 10 µM | – | remaining binding | 98% | C=C1CCCCCCCCCC(CO)C1=O (centres unmarked) |
| cell-free assay, competition with immobilised ligand | 1 µM | – | remaining binding | 100% | Cc1ccc(-c2c(/C=C(\C#N)C(=O)NC(C)C)n(CCCO)c3ncnc(N)c23)cc1 |
| enzyme activity, inhibitor | 10 µM | – | inhibition | -3% | NC(=O)[C@@H](O)C[C@H]1CCc2sc3ncnc(O[C@H]4CC[C@H](N5CCOCC5)CC4)c3c21 |
| kinase activity, inhibitor | 1 µM | reference: untreated control | remaining activity | 99% | COc1c(OCCCN2CCOCC2)ccc2c1N=C(NC(=O)c1cnc(N)nc1)N1CCN=C21 |
| binding, competition with immobilised ligand | 10 µM | – | remaining binding | 100% | CNS(=O)(=O)Nc1nccc(Cc2c(C)c3ccc(Oc4ncccc4F)cc3oc2=O)c1F |
| cell-free assay, inhibitor | 1 µM | – | inhibition | 10.3% | C=CC(=O)N1Cc2nc(-c3cc(-c4cc(Cl)cnc4Cl)c(F)cc3F)n(-c3ccncn3)c2C1 |

For quick reference, copied from above:
| test | conditions | how to read | quantity | result | SMILES |
| --- | --- | --- | --- | --- | --- |
| enzyme activity, inhibitor | 10 µM | – | inhibition | -3% | NC(=O)[C@@H](O)C[C@H]1CCc2sc3ncnc(O[C@H]4CC[C@H](N5CCOCC5)CC4)c3c21 |
